Measurements gathered from unrelated publications.
Each numbered part is a random draw from the data of one study; scales do not carry over between parts. “And” joins repeats or separate records; there may be more than shown.
UniProt Q96SB4, sequence (whole entry, looked up): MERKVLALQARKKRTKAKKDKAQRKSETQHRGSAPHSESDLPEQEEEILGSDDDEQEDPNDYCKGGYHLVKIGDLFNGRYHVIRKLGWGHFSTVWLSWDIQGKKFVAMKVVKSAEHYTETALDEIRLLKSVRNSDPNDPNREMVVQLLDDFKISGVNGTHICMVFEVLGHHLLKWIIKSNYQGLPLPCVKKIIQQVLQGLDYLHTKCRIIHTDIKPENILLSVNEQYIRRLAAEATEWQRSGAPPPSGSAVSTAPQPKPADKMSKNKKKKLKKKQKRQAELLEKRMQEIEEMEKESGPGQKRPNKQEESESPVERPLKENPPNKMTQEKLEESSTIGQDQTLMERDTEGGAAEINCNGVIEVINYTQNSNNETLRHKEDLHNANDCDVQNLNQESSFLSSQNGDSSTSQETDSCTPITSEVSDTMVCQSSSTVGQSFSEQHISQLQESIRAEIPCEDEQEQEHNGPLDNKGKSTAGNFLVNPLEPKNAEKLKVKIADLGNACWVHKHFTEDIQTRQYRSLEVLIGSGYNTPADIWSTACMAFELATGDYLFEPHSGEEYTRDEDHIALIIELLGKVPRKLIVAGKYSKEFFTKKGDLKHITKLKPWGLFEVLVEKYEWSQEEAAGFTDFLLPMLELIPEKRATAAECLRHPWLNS
UniProt P53779, sequence (whole entry, looked up): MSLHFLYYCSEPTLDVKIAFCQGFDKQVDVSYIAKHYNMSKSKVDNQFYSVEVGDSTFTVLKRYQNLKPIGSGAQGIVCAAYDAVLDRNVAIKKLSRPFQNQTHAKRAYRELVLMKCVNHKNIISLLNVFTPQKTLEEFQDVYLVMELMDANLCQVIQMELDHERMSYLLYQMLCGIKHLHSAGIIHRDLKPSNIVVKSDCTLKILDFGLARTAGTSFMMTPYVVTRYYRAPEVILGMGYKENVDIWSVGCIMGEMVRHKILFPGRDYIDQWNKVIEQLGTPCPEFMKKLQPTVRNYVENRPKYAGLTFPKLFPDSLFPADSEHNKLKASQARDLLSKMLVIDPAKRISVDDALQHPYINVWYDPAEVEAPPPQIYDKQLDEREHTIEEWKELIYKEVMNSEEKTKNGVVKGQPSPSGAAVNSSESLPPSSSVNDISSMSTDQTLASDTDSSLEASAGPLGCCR
UniProt P10721, sequence (whole entry, unmodified, looked up): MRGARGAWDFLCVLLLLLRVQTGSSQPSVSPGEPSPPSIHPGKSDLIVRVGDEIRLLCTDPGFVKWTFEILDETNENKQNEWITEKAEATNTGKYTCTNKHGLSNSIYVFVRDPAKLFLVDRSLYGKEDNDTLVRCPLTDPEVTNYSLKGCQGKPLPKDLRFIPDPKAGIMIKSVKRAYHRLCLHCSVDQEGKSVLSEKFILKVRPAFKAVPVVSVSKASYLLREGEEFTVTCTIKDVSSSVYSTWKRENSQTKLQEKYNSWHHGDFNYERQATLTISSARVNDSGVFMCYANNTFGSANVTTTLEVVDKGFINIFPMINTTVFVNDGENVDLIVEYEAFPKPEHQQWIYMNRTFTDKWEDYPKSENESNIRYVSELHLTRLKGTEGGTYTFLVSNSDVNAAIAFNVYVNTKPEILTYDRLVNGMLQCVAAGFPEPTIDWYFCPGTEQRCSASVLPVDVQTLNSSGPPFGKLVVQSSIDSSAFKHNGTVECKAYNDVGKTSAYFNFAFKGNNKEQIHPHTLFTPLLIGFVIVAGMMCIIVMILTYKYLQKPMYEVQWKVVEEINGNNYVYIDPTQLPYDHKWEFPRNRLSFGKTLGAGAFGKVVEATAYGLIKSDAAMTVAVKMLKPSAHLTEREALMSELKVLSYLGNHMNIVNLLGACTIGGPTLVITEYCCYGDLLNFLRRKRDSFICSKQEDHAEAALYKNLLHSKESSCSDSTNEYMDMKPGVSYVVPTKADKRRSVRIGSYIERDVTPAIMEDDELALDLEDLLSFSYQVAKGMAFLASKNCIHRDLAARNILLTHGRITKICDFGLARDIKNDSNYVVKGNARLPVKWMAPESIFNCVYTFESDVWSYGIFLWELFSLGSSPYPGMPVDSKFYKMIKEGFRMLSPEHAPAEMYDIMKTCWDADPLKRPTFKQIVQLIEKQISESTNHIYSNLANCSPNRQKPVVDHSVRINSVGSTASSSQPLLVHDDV
UniProt Q8IWQ3, sequence (whole entry, looked up): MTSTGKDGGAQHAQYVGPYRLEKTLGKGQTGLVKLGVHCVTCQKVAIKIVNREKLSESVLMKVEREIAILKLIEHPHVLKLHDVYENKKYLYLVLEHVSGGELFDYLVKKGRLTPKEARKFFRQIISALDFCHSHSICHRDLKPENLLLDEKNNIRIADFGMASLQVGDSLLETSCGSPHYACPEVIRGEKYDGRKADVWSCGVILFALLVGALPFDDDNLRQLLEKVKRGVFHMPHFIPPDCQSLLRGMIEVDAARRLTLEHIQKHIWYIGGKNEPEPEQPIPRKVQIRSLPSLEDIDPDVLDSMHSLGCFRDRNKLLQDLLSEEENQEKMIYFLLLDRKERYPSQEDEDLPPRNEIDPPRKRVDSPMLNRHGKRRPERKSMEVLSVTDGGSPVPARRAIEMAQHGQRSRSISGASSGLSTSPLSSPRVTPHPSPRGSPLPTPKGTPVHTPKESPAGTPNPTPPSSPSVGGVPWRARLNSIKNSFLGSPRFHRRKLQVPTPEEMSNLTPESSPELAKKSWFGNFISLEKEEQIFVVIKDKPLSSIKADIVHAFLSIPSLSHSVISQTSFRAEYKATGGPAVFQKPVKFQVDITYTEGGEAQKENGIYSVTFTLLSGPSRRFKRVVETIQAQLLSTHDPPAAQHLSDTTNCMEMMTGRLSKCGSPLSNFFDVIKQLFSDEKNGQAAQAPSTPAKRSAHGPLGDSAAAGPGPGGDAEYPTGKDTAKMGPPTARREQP

Set 1 — effect on: thermal unfolding; technique: differential scanning fluorimetry; tested at: 5.5 µM; reading: higher = more unfolded; endpoint: SYPRO Orange fluorescence
Compound: C[C@@H]1CN(c2ccc(-c3cc(C(=O)NCCOCCOCCOCCOCCOCCOCCNC(=O)/C=C/c4[nH]cc(C(=O)N[C@@H](CC(N)=O)c5ccc(F)c(Cl)c5)c4-c4ccc(Cl)cc4F)ccc3F)cc2NC(=O)c2ccc(F)cc2C(F)(F)F)C[C@H](C)N1C
WDR5: WD repeat-containing protein 5 (WDR5, Homo sapiens, UniProt P61964)
DCAF1: DDB1- and CUL4-associated factor 1 (DCAF1, Homo sapiens, UniProt Q9Y4B6)
UniProt Q9Y4B6, sequence (whole entry, looked up): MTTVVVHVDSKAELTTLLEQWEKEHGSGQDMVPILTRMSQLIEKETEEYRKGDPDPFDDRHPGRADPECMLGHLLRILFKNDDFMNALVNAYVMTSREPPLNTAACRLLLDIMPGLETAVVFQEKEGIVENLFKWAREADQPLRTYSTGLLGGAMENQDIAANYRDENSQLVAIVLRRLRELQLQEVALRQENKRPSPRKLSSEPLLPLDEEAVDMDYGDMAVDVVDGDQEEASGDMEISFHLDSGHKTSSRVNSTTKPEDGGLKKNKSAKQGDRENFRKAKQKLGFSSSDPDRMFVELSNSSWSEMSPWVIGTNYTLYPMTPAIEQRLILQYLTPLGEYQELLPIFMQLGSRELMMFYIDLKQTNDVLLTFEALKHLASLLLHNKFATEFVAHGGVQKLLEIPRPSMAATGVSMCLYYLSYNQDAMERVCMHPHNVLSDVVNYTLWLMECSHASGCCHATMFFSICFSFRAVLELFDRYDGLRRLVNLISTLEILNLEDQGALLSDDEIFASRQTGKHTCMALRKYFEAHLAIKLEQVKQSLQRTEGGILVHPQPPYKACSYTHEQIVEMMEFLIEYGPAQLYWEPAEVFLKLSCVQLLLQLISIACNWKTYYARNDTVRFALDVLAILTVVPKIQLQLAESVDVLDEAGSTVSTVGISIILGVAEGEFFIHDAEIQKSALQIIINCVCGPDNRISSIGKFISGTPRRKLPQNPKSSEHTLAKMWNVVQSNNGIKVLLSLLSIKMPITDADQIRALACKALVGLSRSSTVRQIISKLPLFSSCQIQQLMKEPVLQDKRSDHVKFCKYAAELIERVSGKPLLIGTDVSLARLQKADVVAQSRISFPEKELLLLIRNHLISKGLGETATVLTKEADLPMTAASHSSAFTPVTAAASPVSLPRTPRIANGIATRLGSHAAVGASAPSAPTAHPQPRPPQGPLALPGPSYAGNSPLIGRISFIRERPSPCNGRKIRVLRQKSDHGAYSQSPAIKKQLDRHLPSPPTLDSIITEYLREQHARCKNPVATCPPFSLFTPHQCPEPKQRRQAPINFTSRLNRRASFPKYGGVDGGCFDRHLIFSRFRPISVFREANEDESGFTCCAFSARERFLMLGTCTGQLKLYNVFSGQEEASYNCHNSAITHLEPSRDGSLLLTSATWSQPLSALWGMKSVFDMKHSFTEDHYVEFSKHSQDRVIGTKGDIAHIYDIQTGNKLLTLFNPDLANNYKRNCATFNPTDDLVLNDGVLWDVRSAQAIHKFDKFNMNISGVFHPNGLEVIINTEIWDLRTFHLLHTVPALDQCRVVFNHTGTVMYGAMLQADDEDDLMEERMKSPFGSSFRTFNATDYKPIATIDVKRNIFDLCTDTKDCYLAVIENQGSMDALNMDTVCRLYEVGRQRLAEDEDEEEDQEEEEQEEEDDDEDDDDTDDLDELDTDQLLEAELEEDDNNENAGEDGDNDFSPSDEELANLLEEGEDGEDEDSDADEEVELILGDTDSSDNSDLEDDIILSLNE
target = WDR5; temperature = 52.41 °C; result = 16600 a.u.
target = WDR5; temperature = 63.21 °C; result = 15400 a.u.
target = DCAF1; temperature = 89.01 °C; result = 33100 a.u.
target = DCAF1; temperature = 50.6 °C; result = 18600 a.u.
target = DCAF1; temperature = 84.81 °C; result = 36100 a.u.
target = DCAF1; temperature = 67.81 °C; result = 50500 a.u.
target = WDR5; temperature = 62.81 °C; result = 15400 a.u.

Set 2 — tested at: 1 µM; endpoint: remaining binding
SMILES: CCC1(c2cccc(-c3cn(C)nc3C)c2)C2=C(Nc3n[nH]cc31)C(F)C(C)(C)CC2=O (single isomer, unassigned)
target = Insulin receptor (INSR, Homo sapiens, UniProt P06213); effect on = kinase binding; technique = KINOMEscan; relative to = DMSO control; result = 100%
target = GRK4 (Homo sapiens, UniProt P32298); effect on = binding; technique = competition with immobilised ligand; result = 100%
target = PRKX (Homo sapiens, UniProt P51817); effect on = kinase binding; technique = KINOMEscan; relative to = DMSO control; result = 90%
target = IGF1R (Homo sapiens, UniProt P08069); effect on = binding; technique = competition with immobilised ligand; result = 92%
target = EIF2AK1 (Homo sapiens, UniProt Q9BQI3); effect on = kinase binding; technique = KINOMEscan; relative to = DMSO control; result = 100%
target = EGFR (Homo sapiens, UniProt P00533, L858R/T790M); effect on = kinase binding; technique = KINOMEscan; relative to = DMSO control; result = 100%
target = NEK1 (Homo sapiens, UniProt Q96PY6); effect on = binding; technique = competition with immobilised ligand; result = 100%
target = MINK1 (Homo sapiens, UniProt Q8N4C8); effect on = kinase binding; technique = KINOMEscan; relative to = DMSO control; result = 92%
target = RIPK2 (Homo sapiens, UniProt O43353); effect on = binding; technique = competition with immobilised ligand; result = 100%
target = PIK3CD (Homo sapiens, UniProt O00329); effect on = binding; technique = competition with immobilised ligand; result = 100%
target = MAP3K6 (Homo sapiens, UniProt O95382); effect on = binding; technique = competition with immobilised ligand; result = 100%
target = KIT (Homo sapiens, UniProt P10721, V559D); effect on = binding; technique = competition with immobilised ligand; result = 100%
target = NLK (Homo sapiens, UniProt Q9UBE8); effect on = binding; technique = competition with immobilised ligand; result = 100%
target = CDKL5 (Homo sapiens, UniProt O76039); effect on = binding; technique = competition with immobilised ligand; result = 100%

Set 3 — effect on: membrane potential; technique: FLIPR membrane potential; cells: CHO-BC cells; tested at: concentration not given; notes: first screen; relative to: uninhibited control; endpoint: normalised transport activity
Target: Sodium-dependent neutral amino acid transporter B(0)AT1 (SLC6A19, Homo sapiens, UniProt Q695T7)
UniProt Q695T7, sequence (whole entry, looked up): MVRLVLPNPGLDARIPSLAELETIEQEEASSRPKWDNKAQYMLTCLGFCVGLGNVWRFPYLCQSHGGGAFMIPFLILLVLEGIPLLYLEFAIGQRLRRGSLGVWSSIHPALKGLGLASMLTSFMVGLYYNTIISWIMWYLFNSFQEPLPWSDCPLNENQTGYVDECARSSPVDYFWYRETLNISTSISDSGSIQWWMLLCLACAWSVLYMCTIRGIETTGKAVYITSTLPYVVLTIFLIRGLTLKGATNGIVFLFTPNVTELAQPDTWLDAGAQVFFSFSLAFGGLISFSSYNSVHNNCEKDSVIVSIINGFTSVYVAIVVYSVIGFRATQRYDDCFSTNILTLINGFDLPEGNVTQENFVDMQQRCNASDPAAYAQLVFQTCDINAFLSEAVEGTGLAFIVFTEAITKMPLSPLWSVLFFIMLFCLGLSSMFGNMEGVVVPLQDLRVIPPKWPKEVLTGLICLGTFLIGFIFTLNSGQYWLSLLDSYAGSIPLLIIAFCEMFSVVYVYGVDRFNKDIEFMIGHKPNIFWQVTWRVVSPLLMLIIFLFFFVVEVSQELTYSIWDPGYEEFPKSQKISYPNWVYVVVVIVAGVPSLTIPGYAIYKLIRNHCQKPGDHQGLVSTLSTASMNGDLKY
Structure (SMILES) = Cc1cc(OCC(=O)Nc2ccccc2)cc(C)c1Cl; result = 1.09 and 1.13 and 0.993 and 0.985 and 1.08
Structure (SMILES) = CC(C)NC(=O)COc1ccc(Br)cc1; result = 0.619 and 0.581 and 0.416 and 0.609 and 0.54
Structure (SMILES) = Cc1cc(OCC(=O)CC(C)C)cc(C)c1Cl; result = 1.17 and 0.945 and 0.951 and 0.941 and 1.09
Structure (SMILES) = CNC(=O)COc1cc(C)c(Cl)c(C)c1; result = 0.746 and 0.704 and 0.748 and 0.74
Structure (SMILES) = CCCCNC(=O)COc1cc(C)c(Cl)c(C)c1; result = 1.03 and 0.991 and 1.07 and 0.976
Structure (SMILES) = CC(C)NC(=O)COc1ccc(Cl)cc1; result = 0.644 and 0.73 and 0.553 and 0.679 and 0.648
Structure (SMILES) = Cc1cc(OC(C)(C)C(=O)NC(C)C)cc(C)c1Cl; result = 0.998 and 1.19 and 1.17 and 1.08 and 0.918
Structure (SMILES) = Cc1cc(OCC(=O)OC(C)C)cc(C)c1Cl; result = 0.928 and 1.08 and 0.911 and 1.01
Structure (SMILES) = Cc1cc(Cl)ccc1OCC(=O)NC(C)C; result = 0.928 and 0.909 and 0.889 and 0.996

Set 4 — effect on: kinase activity; endpoint: inhibition
Compound: CNc1ncc2cc(-c3cc(OC)cc(OC)c3Cl)c(=O)n(CCc3ccc(NC(=O)C(C#N)=CC(C)(C)N4CCOCC4)cc3)c2n1
target = STK16 (Homo sapiens, UniProt O75716); tested at = 1 µM; result = 0%
target = SRPK1 (Homo sapiens, UniProt Q96SB4); tested at = 0.1 µM; result = 1%
target = MAPK8 (Homo sapiens, UniProt P45983); tested at = 0.1 µM; result = 8%
target = CSNK1G1 (Homo sapiens, UniProt Q9HCP0); tested at = 0.1 µM; result = 1%
target = BRSK2 (Homo sapiens, UniProt Q8IWQ3); tested at = 1 µM; result = -2%
target = MAPK10 (Homo sapiens, UniProt P53779); tested at = 1 µM; result = 7%
target = BTK (Homo sapiens, UniProt Q06187); tested at = 1 µM; result = -15%
target = ITK (Homo sapiens, UniProt Q08881); tested at = 0.1 µM; result = 2%
target = PTK2B (Homo sapiens, UniProt Q14289); tested at = 0.1 µM; result = -1%
target = CDC42BPA (Homo sapiens, UniProt Q5VT25); tested at = 1 µM; result = -2%
target = SRC (Homo sapiens, UniProt P12931); tested at = 1 µM; result = 17%
target = TAOK2 (Homo sapiens, UniProt Q9UL54); tested at = 0.1 µM; result = 6%
target = STK26 (Homo sapiens, UniProt Q9P289); tested at = 1 µM; result = 0%
target = HIPK4 (Homo sapiens, UniProt Q8NE63); tested at = 0.1 µM; result = -5%

Some of these lines once more (set 2):
target = CDKL5 (Homo sapiens, UniProt O76039); effect on = binding; technique = competition with immobilised ligand; result = 100%
target = EGFR (Homo sapiens, UniProt P00533, L858R/T790M); effect on = kinase binding; technique = KINOMEscan; relative to = DMSO control; result = 100%
target = KIT (Homo sapiens, UniProt P10721, V559D); effect on = binding; technique = competition with immobilised ligand; result = 100%
target = MAP3K6 (Homo sapiens, UniProt O95382); effect on = binding; technique = competition with immobilised ligand; result = 100%
target = MINK1 (Homo sapiens, UniProt Q8N4C8); effect on = kinase binding; technique = KINOMEscan; relative to = DMSO control; result = 92%
